# Measurements from different studies.
# Parts stem from different laboratories: compare values within a part only. Positions count from the first letter of the parent shown.
# Sequence of UniProt Q96GD4 (whole entry, looked up): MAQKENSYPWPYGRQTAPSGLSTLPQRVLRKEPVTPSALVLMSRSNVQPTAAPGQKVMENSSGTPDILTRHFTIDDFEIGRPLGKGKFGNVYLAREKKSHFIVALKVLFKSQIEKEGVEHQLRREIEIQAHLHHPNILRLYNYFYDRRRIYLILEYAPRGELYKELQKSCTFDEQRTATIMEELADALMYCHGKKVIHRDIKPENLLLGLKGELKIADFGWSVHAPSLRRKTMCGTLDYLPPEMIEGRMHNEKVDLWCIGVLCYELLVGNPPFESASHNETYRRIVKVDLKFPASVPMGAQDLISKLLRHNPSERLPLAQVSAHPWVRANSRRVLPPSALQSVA
# Sequence of UniProt P27037 (whole entry, looked up): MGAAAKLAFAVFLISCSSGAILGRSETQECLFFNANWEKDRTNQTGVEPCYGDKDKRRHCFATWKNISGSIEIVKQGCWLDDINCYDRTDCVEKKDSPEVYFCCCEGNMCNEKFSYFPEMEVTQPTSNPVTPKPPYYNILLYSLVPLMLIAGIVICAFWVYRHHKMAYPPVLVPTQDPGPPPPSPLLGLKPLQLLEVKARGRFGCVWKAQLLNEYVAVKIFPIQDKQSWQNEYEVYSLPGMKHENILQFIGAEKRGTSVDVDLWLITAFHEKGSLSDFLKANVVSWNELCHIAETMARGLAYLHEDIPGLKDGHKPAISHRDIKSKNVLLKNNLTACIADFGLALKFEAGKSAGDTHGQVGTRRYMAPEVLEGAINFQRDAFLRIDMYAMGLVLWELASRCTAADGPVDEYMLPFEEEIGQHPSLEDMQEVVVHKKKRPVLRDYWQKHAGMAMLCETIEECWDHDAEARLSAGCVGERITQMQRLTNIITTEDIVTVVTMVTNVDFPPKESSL
# Sequence of UniProt Q8N568 (whole entry, looked up): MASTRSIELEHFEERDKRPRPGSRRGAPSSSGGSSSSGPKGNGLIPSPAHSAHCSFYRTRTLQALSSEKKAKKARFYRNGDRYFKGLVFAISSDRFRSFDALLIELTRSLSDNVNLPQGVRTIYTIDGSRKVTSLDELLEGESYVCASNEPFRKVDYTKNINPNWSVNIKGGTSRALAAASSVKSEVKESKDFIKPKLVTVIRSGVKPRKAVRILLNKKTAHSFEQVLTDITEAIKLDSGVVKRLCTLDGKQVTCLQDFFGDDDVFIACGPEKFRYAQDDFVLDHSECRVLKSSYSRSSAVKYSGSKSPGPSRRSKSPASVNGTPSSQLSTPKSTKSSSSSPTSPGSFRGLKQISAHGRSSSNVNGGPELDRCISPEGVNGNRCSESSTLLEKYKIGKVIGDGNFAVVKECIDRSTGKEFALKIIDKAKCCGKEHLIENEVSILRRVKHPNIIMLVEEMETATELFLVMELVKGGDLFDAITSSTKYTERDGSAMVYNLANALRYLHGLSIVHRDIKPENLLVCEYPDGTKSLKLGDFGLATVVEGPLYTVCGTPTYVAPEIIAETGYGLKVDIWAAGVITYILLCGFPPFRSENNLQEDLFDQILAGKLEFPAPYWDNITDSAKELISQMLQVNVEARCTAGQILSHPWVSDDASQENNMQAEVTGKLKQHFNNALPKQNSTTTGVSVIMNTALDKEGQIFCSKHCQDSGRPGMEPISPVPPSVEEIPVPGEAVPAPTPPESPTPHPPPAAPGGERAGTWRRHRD
# Sequence of UniProt Q9Y616 (whole entry, looked up): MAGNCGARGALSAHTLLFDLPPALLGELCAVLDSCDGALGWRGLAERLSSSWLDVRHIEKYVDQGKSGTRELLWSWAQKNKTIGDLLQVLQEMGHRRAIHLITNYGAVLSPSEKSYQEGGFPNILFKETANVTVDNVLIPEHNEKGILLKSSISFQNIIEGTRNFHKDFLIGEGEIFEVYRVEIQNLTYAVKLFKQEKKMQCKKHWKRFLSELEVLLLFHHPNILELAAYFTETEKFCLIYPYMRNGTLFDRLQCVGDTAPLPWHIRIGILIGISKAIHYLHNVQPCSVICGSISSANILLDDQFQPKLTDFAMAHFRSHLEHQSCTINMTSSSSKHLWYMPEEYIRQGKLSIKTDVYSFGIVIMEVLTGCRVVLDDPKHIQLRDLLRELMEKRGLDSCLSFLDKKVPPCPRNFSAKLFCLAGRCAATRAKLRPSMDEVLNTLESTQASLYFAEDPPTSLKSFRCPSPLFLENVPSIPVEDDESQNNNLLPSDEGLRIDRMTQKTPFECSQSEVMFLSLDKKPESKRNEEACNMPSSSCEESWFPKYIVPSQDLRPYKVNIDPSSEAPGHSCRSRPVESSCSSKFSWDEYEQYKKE
# Sequence of UniProt Q9UPZ9 (whole entry, looked up): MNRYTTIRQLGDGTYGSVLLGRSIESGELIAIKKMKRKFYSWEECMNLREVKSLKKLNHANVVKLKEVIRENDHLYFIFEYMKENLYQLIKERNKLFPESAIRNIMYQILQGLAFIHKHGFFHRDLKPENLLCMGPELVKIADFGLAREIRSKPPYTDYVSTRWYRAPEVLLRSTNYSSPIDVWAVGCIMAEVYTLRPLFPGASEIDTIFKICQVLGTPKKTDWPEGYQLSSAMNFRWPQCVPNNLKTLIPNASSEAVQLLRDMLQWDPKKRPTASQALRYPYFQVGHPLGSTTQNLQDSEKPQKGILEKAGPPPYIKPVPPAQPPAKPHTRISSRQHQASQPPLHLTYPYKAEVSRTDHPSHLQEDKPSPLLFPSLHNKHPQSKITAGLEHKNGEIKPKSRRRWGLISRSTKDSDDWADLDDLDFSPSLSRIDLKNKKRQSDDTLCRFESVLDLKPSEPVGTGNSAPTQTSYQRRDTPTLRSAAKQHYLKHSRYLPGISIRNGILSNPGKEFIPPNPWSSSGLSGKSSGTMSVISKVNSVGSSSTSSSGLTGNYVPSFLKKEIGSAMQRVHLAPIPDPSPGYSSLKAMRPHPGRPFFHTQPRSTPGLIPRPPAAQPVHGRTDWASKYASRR
# Sequence of UniProt P78356 (whole entry, looked up): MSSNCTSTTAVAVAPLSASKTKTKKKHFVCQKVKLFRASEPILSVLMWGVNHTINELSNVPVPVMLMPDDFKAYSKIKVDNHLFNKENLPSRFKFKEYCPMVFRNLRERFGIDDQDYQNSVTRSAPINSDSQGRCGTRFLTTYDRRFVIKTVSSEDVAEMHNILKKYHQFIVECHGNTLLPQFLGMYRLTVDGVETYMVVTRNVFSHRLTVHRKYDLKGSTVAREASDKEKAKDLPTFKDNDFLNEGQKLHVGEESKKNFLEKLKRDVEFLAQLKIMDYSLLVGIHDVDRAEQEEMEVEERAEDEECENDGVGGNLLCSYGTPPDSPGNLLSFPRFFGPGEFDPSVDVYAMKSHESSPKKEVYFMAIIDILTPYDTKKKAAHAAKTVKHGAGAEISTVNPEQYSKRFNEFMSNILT
# Sequence of UniProt P52564 (whole entry, looked up): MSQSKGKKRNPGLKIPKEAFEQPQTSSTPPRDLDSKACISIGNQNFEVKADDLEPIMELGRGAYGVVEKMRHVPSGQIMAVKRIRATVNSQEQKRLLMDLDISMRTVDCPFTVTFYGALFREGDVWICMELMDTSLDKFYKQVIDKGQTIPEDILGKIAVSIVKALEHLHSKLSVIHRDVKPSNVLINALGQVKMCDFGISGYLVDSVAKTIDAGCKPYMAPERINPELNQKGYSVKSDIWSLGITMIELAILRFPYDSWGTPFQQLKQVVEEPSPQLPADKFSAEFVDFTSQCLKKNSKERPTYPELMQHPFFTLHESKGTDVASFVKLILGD
# Sequence of UniProt P0C1S8 (whole entry, looked up): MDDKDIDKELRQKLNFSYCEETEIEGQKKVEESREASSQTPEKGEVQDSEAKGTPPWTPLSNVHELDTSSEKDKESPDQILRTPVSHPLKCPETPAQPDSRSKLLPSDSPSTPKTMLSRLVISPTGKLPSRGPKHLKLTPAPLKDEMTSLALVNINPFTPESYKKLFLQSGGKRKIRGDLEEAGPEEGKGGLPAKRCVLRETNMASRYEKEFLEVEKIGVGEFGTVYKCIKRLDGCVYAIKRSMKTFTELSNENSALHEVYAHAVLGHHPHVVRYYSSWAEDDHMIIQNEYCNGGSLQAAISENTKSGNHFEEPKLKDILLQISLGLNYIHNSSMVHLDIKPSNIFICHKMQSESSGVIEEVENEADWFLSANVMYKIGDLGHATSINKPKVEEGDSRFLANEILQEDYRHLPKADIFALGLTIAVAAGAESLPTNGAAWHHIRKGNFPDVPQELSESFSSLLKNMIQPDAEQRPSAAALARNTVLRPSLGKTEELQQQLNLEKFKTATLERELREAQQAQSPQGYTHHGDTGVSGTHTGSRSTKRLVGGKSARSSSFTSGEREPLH
# Sequence of UniProt Q9HC98 (whole entry, looked up): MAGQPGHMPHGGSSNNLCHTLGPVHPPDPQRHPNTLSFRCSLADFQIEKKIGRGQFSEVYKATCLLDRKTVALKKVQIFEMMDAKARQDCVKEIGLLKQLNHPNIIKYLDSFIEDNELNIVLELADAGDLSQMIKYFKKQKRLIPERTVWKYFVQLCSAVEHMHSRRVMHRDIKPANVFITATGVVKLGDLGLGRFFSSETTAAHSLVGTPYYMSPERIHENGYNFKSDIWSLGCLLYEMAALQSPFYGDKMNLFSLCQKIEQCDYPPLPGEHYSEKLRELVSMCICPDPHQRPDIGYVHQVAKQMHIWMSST

# Block 1 — host: mouse; matrix: microsomes or S9; tested at: 2 µM; time: 0.5 h
Compound,remaining compound [%]
O=C(Nn1cnc2ccccc21)c1nc(-c2ccc(F)cc2)n2c1CCCCC2,0.0779
CCN(CCn1cccn1)Cc1[nH]nc(C)c1Cl,13
CCC(O)(c1ccccc1)c1cc(Cl)ccc1N (stereo not shown),22.4

# Block 2 — method: RNA Bind-n-Seq; form: RNA; matrix: in vitro; tested at: 200 nM; notes: whole 134-nt RNA, ends assumed; together with: 150 mM LiCl; reference: input library; reading: higher = stronger binding; library: 7-deaza-guanosine replaces G
# Target: Fragile X messenger ribonucleoprotein 1, C-terminal low-complexity region (Fmr1, Mus musculus, UniProt P35922)
# Shared flanks, not repeated: GGGAGUUCUACAGUCCGACGAUC … UGGAAUUCUCGGGUGUCAAGG
Sequence,log2 enrichment
GUCCUGUGCUACACAUCGUAUGUACCGAAUCGGGGUGGGGAAAAAAAGGGGUUUGGGGAAAGUAUUAUGUUACGCCGUUCGGAUCUGCAC,-0.612
AAGUCCUGUGCUACACAUCGUAUGUACCGAAUCGGAAAAAGGAAAAAAAGGUUUGGAAAGUAUUAUGUUACGCCGUUCGGAUCUGCACUU,-3.52
AGUCCUGUGCUACACAUCGUAUGUACCGAAUCGGGAAAAAGGAAAAAGGGAAAAAGGAAAGUAUUAUGUUACGCCGUUCGGAUCUGCACU,-1.6
UCCUGUGCUACACAUCGUAUGUACCGAAUCGGGGUUUUUUGGUUUUUUGGUUUUUUGGGAAAGUAUUAUGUUACGCCGUUCGGAUCUGCA,-0.615
CUCAAGUCCUGUGCUACACAUCGUAUGUACCGAAUCGGGUUUGGGUGGGAGGGAAAGUAUUAUGUUACGCCGUUCGGAUCUGCACUUCCA,-0.513
ACCAUGCAGGUGGGCAUCUUUGGGAAGUGGGGCAAGGGGGUGAUAGGGAGGGGGGUAACACUUUGGGAACAGGUGGUCCCAGGUCGUUUC,0.605
CUGUGCUACACAUCGUAUGUACCGAAUCGGGGUUUUUUUGGGGAAAGGGGUUUUUUUGGGGAAAGUAUUAUGUUACGCCGUUCGGAUCUG,-0.667
AAGUCCUGUGCUACACAUCGUAUGUACCGAAUCGGGUUUUGGGUUUUGGGUUUUGGAAAGUAUUAUGUUACGCCGUUCGGAUCUGCACUU,-1.71

# Block 3 — action: antagonist
# Target: Beta-1 adrenergic receptor (ADRB1, Homo sapiens, UniProt P08588)
# Sequence of UniProt P08588 (whole entry, looked up): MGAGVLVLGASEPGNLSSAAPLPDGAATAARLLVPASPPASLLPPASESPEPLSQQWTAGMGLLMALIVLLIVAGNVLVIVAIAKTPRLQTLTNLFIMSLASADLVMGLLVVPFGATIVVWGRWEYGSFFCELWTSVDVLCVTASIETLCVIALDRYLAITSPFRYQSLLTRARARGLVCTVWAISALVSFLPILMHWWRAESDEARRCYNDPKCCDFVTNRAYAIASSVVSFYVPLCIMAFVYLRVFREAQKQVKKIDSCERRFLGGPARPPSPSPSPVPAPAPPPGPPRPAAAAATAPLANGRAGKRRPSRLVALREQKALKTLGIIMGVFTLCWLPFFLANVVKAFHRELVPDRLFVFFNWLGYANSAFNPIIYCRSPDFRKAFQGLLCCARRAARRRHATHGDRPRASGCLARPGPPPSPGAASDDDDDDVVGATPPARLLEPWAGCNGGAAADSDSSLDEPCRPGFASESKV
SMILES,IC50 [µM]
CN(C)CCN(C)C(=O)c1ccc(NC(=O)Nc2ccc(-c3nc(N4CCOCC4)c4ccn(CC(F)(F)F)c4n3)cc2)cc1,≥ 100
Cc1ccc(-c2nnc(-c3cc(-c4ccccc4)nc4ccccc34)o2)cc1,≥ 100
O=C1NCc2ccccc2CC12CCN(Cc1ccc3ccccc3n1)CC2,≥ 100

# Block 4 — method: DHFR PCA, deep sequencing; matrix: yeast; together with: (+)-ABA 0.032 µM; reference: wild-type fitted maximum; reading: higher = stronger binding
# Target: ABI1, truncated, D143A, DHFR fusion (Arabidopsis thaliana)
# Notes: methotrexate growth selection, single substitutions
# Parent: PYL1, truncated, DHFR fusion (Arabidopsis thaliana); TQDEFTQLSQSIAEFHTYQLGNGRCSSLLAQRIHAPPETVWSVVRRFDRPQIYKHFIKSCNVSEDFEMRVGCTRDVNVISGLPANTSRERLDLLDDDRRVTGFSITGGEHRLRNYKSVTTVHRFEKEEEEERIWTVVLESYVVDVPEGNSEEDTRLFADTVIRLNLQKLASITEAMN
Change,relative binding score [%]
A13N,24.4
F56L,-3.47
F103C,-1.87
I105V,19.5
N114E,-7.16
R111F,13.7
Q2S,25.8
V44R,-3.11

# Block 5 — read-out: cell-free assay; method: competition with immobilised ligand; tested at: 1 µM
# Structure (SMILES): O=C(O)c1cc(-c2ccc(C3CCNCC3)cc2)c2ccc(-c3ccc(C(F)(F)F)cc3)cc2c1
target,remaining binding [%]
"Serine/threonine-protein kinase TNNI3K (TNNI3K, Homo sapiens, UniProt Q59H18)",100
"Platelet-derived growth factor receptor beta (PDGFRB, Homo sapiens, UniProt P09619)",100
"Phosphatidylinositol 5-phosphate 4-kinase type-2 beta (PIP4K2B, Homo sapiens, UniProt P78356)",91
"Receptor tyrosine-protein kinase erbB-4 (ERBB4, Homo sapiens, UniProt Q15303)",100
"Interleukin-1 receptor-associated kinase 3 (IRAK3, Homo sapiens, UniProt Q9Y616)",100
"Serine/threonine-protein kinase RIO3 (RIOK3, Homo sapiens, UniProt O14730)",100
"Aurora kinase B (AURKB, Homo sapiens, UniProt Q96GD4)",100
"Mast/stem cell growth factor receptor Kit (KIT, Homo sapiens, UniProt P10721, D816H)",100
"MAP kinase-activated protein kinase 5 (MAPKAPK5, Homo sapiens, UniProt Q8IW41)",100
"Death-associated protein kinase 3 (DAPK3, Homo sapiens, UniProt O43293)",100
"Activin receptor type-2A (ACVR2A, Homo sapiens, UniProt P27037)",100
"Epidermal growth factor receptor (EGFR, Homo sapiens, UniProt P00533, del747-752/P753S)",100
"Serine/threonine-protein kinase DCLK2 (DCLK2, Homo sapiens, UniProt Q8N568)",100
"Wee1-like protein kinase 2 (WEE2, Homo sapiens, UniProt P0C1S8)",100
"Dual specificity mitogen-activated protein kinase kinase 6 (MAP2K6, Homo sapiens, UniProt P52564)",100
"Serine/threonine-protein kinase Nek6 (NEK6, Homo sapiens, UniProt Q9HC98)",100
"Epidermal growth factor receptor (EGFR, Homo sapiens, UniProt P00533, L858R/T790M)",100
"Serine/threonine-protein kinase VRK2 (VRK2, Homo sapiens, UniProt Q86Y07)",100
"Serine/threonine-protein kinase ICK (CILK1, Homo sapiens, UniProt Q9UPZ9)",100

# Mixed results — tested at: 10 µM
Structure (SMILES),target or system,assay,conditions,scale,endpoint,result
CCCn1c(=O)c2nc(C34CC5CC(CC3C5)C4)[nH]c2n(CCC)c1=O,mouse MPNST tumor cells,"high-content immunofluorescence imaging, refers to: nuclear SOX9","12 h, mean of 2 replicates","reference: DMSO control, higher = more nuclear SOX9",nuclear SOX9 intensity,114 % of DMSO
Cc1nnc(SCC2=C(C(=O)O)N3C(=O)[C@@H](NC(=O)Cn4cnnn4)[C@H]3SC2)s1,Sarcocystis neurona,parasite growth,96 h,,inhibition,-17.6%

# A few entries again (block 5):
target,remaining binding [%]
"Serine/threonine-protein kinase RIO3 (RIOK3, Homo sapiens, UniProt O14730)",100
"Wee1-like protein kinase 2 (WEE2, Homo sapiens, UniProt P0C1S8)",100
"Epidermal growth factor receptor (EGFR, Homo sapiens, UniProt P00533, del747-752/P753S)",100
"Aurora kinase B (AURKB, Homo sapiens, UniProt Q96GD4)",100
"Serine/threonine-protein kinase VRK2 (VRK2, Homo sapiens, UniProt Q86Y07)",100
"Serine/threonine-protein kinase ICK (CILK1, Homo sapiens, UniProt Q9UPZ9)",100
